# Measured values gathered from unrelated publications.
# A part holds a random share of what one study measured. Substitutions count along the parent as printed.

# Sample 1 — technique: RNA Bind-n-Seq; molecule type: RNA; sample: in vitro; tested at: 200 nM; notes: whole 134-nt RNA, ends assumed; together with: 150 mM LiCl; reference: input library; direction: higher = stronger binding; all molecules: 7-deaza-guanosine replaces G
# Target: Fragile X messenger ribonucleoprotein 1, C-terminal low-complexity region (Fmr1, Mus musculus, UniProt P35922)
# All sequences stand within: GGGAGUUCUACAGUCCGACGAUC … UGGAAUUCUCGGGUGUCAAGG
Strand,log2 enrichment
AAGUCCUGUGCUACACAUCGUAUGUACCGAAUCGGGAAAGGGAGGGUUUUUUUGGGAAAGUAUUAUGUUACGCCGUUCGGAUCUGCACUU,-1.14
AGUCCUGUGCUACACAUCGUAUGUACCGAAUCGGGGUGGGGAGGGGAAAAAAAGGGGAAAGUAUUAUGUUACGCCGUUCGGAUCUGCACU,0.507
GCAGGAAGUAAAAACAAAUGGAAAUGCUUCGGAUAGUGGCAGGGGUGGGGGUUGCUAAGGAAAGGGUGGGAUGGGAGUGGGUAAAGAGUC,1.49
AGUCCUGUGCUACACAUCGUAUGUACCGAAUCGGGGUUUUUGGGUUUUUGGUUUUUGGAAAGUAUUAUGUUACGCCGUUCGGAUCUGCAC,-1.51
CCUGUGCUACACAUCGUAUGUACCGAAUCGGAAAAAAGGGAAAAAAGGGGAAAAAAGGGGAAAGUAUUAUGUUACGCCGUUCGGAUCUGC,0.0477
UGGCCCUGGUGGCAUGCGGGGAGGAAGAGGUGGCCUCGUGGAUCGUGGUGGUCCCGGUGGAAUGUUCAGAGGUGGCCGUGGUGGAGACAG,0.218
UGGCCCUGGUGGCAUGCGGGGAGGAAGAGGUGGCCUCAUGGAUCGUGGUGGUCCCGGAGGAAUGUUCAGAGGUGGCCGUGGUGGAGACAG,-0.578
UGGGAGGUGGAUUUUGUUUAUUUUUUUAGCUCAUUUCCAGGGGUGGGAAUUUUUUUUUAAUAUGUGUCACGAAUAAAGUUGUUUUUGAAA,0.516
GUCCUGUGCUACACAUCGUAUGUACCGAAUCAAAUUUAAACCCCCCCAAAUUUUUAAAAAAGUAUUAUGUUACGCCGUUCGGAUCUGCAC,1.56
CAAGUCCUGUGCUACACAUCGUAUGUACCGAAUCGGAAAAAAAGGUUUGGUUUGGAAAGUAUUAUGUUACGCCGUUCGGAUCUGCACUUC,-2.43
GUCCUGUGCUACACAUCGUAUGUACCGAAUCAAAUUUAAAUUUUUAAAUUUUUUUAAAAAAGUAUUAUGUUACGCCGUUCGGAUCUGCAC,-2.76

# Sample 2 — technique: protein-binding microarray; molecule type: double-stranded DNA, one strand shown; sample: in vitro; tested at: 2200 nM top; notes: 60-bp whole probe; together with: salmon DNA 0.4 mg/ml; reference: random background probes; direction: higher = stronger binding; all sequences stand within: GCCTAGCAC … GTCTTGATTCGCTTGACGCTGCTG
# Target: Interferon regulatory factor 7, full length, phosphomimetic (IRF7, Homo sapiens, UniProt Q92985, residues 1-503, S471D/S472D/S475D/S476D/S477D/S483D/S484D/S487D)
# Construct (chain): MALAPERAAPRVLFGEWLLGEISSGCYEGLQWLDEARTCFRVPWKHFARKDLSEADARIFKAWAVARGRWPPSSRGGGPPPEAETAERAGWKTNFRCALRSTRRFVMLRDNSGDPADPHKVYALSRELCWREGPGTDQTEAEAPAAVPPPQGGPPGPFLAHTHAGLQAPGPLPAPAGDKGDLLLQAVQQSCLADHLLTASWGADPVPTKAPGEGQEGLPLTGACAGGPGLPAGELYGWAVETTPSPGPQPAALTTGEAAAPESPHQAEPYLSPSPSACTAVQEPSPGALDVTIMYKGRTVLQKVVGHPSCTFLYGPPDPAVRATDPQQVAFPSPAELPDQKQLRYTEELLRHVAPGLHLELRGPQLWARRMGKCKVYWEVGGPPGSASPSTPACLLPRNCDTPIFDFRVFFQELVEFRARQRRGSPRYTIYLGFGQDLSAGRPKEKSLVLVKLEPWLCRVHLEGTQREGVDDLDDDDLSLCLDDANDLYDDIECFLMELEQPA
Strand,fitted relative affinity
GACGGACTGGGTTGCGGGACGTGCTAG,-0.632 z-score
GAAGATATCAGTATCGAGACGTGCTAG,-0.21 z-score
TCACTTTCTGTTTTCTCACTGTGCTAG,11.9 z-score
TGACTTTTGAGAGATGGAAACGTGCTA,0.0264 z-score
AGACTTCTCCATTTTTCTAGGTGCTAG,1.03 z-score
AATGAGGCACTGAGAGCAGAGTGCTAG,-1.04 z-score
AACGGTATCGGGTATCGGGACGTGCTA,0.252 z-score
TTAGATTCCAGTTTCGCTTAGTGCTAG,6.03 z-score
TCAGAGTCCTGTTTGATACTGTGCTAG,1.04 z-score
TTAGTTATCAGACTGGATTAGTGCTAG,0.279 z-score
CATCATTTTTCCCTCTGGAAGTGCTAG,2.27 z-score
GACTGACTGCTTCTCCTGACGTGCTAG,0.964 z-score
AACTGTCTGCCTTTCAATCCGTGCTAG,1.26 z-score
GACGGTTTCAGTTTCGGGACGTGCTAG,8.39 z-score
AGTCTTCTCCTCTAGGTTCTCGTGCTA,1.11 z-score
TTAGGTTTCCTAATGCTTTAGTGCTAG,0.769 z-score
GACGATTTCATTTTCGAGACGTGCTAG,5.76 z-score
TACGATTTCAGTATCGAGACGTGCTAG,0.96 z-score
GACGAACTGGGGTATCGAGCCGTGCTA,-0.138 z-score
GACGGTTTCGGGGTTCGGGACGTGCTA,3.59 z-score
TTAGGACTGCTACTCCTTTAGTGCTAG,0.565 z-score
TCAACCATCCTATGTAGAACTGTGCTA,1.13 z-score
TCAAGTTTACCCATCTCACTGTGCTAG,1.04 z-score
GACGATCTCAGTTTCGAGCCGTGCTAG,2.52 z-score
GACGGTTTCGACAGTGGGGACGTGCTA,1.83 z-score

# Sample 3 — target: CCNB2, cyclin fold, Cln2 fusion (human); technique: yeast growth competition, sequencing; sample: yeast; notes: weak parent motif; reference: not given; direction: higher = stronger binding
# Parent: BRCA2 docking peptide (human); CKKRRALDFLSRL
Change,normalised enrichment score
CKKRAAADFLSRL [R5A L7A],0.545
CKKRRALDFLSAL [R12A],1.28
CKKRKALDLLSRL [R5K F9L],1.05
CKKRKALDFLSRL [R5K],0.457
CKKRRAADFLSRL [L7A],0.513
CKKRRALAFLSRL [D8A],0.365
CKKRAALDFLSRL [R5A],0.568
CKKRRALDFLSRA [L13A],0.675
CKKRRALDFASRL [L10A],1.01

# Sample 4 — technique: protein binding microarray; molecule type: double-stranded DNA, one strand shown; sample: in vitro; tested at: not given; reference: not given; direction: higher = stronger binding
# Target: Histone acetyltransferase KAT6A, winged helix 1, GST fusion (KAT6A, Homo sapiens, UniProt Q92794, residues 1-85)
# Notes: 8-mer, flanks averaged, mean of 2 arrays, mostly near background
# Construct (chain): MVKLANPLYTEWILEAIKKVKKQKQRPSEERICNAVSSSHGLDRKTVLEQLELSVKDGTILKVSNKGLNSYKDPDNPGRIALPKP
Strand,E-score
CAATACGA,-0.0722
ATCAGAAA,-0.174
CTCTCCAG,-0.189
AGCTCGGC,0.268
CTTACCTC,-0.272
CACGTAGC,-0.0713
AGTCCGCC,0.169
AGGTGAGA,-0.139
AATTCACG,0.00475
GATGACCC,-0.164
AGTATGTG,-0.206
CTATTCCA,-0.0646
CTAATTGA,-0.0684
ACTGTAAG,-0.0573
TTGCGCAA,0.228
CAGACGAG,-0.153
TCCTGGAA,-0.197
ATCAGACG,0.0208
TATTAGCA,-0.171

# Sample 5 — technique: aptamer microarray, sandwich; molecule type: DNA with 2'F-ANA; sample: in vitro; tested at: 200 nM; together with: Cy3 exosite-II aptamer, 400 nM; direction: higher = stronger binding; strand: GGTTGGTGTGGTTGG
# Target: Prothrombin, mature alpha-thrombin (F2, Homo sapiens, UniProt P00734)
# Notes: whole 15-mer aptamer, many near background
Modification,mean fluorescence intensity
2'F-ANA at 1 2 3 5 6,139 a.u.
2'F-ANA at 1 2 3 7 9 13,157 a.u.
2'F-ANA at 1 2 3 7 10 12 13 14,72.6 a.u.
2'F-ANA at 1 4 5 9 10 11 12 13,47.7 a.u.
2'F-ANA at 1 3 7 8 9 10 11 12 13,105 a.u.
2'F-ANA at 1 3 5 6 8 10 12 13 14 15,46.2 a.u.
2'F-ANA at 1 3 13,245 a.u.
2'F-ANA at 3 6 9 10 11 12,507 a.u.
2'F-ANA at 1 2 6 10 12 13 14,49.1 a.u.
2'F-ANA at 8 9 10 11 12 13 15,176 a.u.
2'F-ANA at 2 3 9 11 14,407 a.u.
2'F-ANA at 1 2 3 9 11 14,63.6 a.u.
2'F-ANA at 1 3 10 12 13 14,60.7 a.u.
2'F-ANA at 1 2 3 6 10 14,55.9 a.u.
2'F-ANA at 3 5 10 11 13 15,65 a.u.
2'F-ANA at 2 3 5 6 7 10,48.9 a.u.
2'F-ANA at 2 4 5 6 8 10 11 14,60.8 a.u.
2'F-ANA at 1 3 4 5 6 11 14,45.2 a.u.
2'F-ANA at 2 3 5 6 7 10 11,51.4 a.u.

# Some of these lines once more (sample 3):
Change,normalised enrichment score
CKKRKALDLLSRL [R5K F9L],1.05
CKKRRALAFLSRL [D8A],0.365
CKKRKALDFLSRL [R5K],0.457
CKKRRALDFLSRA [L13A],0.675
CKKRAAADFLSRL [R5A L7A],0.545
CKKRRALDFASRL [L10A],1.01
CKKRAALDFLSRL [R5A],0.568
CKKRRAADFLSRL [L7A],0.513
CKKRRALDFLSAL [R12A],1.28
